Results from different studies.
Protocols differ between the studies behind these lines. ± marks the error that the study gave.

SMILES | assay | test system | setting | how to read | quantity | result
COc1ccc2[nH]c([S+]([O-])Cc3ncc(C)c(OC)c3C)nc2c1 (centres unmarked) |  | healthy Chinese volunteers, plasma | oral, 20 mg, fasted, CYP2C19 rapid metabolizers |  | AUC(0-inf) | 233 ng·h/mL
N#C[C@@]1(c2ccc3c(N)ncnn23)O[C@H](CO)[C@@H](O)[C@H]1O | plasma protein binding | rat plasma | 10 µM |  | bound fraction | 0.0819
N#Cc1ccc2c(c1)[C@H]1CCCN(C(=O)c3ccc4[nH]cnc4c3)[C@H]1C2 |  | human, plasma | 80 mg once daily, day 21 |  | pre-dose plasma concentration | 1740 nmol/L
CC(C)[C@@H](CN1CC[C@@](C)(c2cccc(O)c2)[C@@H](C)C1)NC(=O)[C@H]1Cc2ccc(O)cc2CN1 |  | Sprague-Dawley rat, plasma | intraperitoneal, 5 mg/kg |  | AUCtotal | 1320 ng·h/mL
CCCCCCCCCCCCCCCC(=O)N[C@@H](CCC(=O)NCCCC[C@@H]1NC(=O)[C@H]([C@@H](C)CC)NC(=O)[C@@H](NC(=O)[C@@H]2CCCN2C(=O)[C@H](Cc2ccccc2)NC(=O)[C@H](Cc2c[nH]cn2)NC(=O)[C@@H](NC(=O)[C@H](CC(=O)O)NC(=O)CC(C)C)[C@@H](C)O)CSSC[C@@H](C(=O)N[C@@H](CCCCN)C(N)=O)NC(=O)CNC(=O)[C@H](CCCCN)NC(=O)[C@H](CO)NC(=O)[C@H](CCCNC(=N)N)NC(=O)[C@@H]2CCCN2C(=O)[C@H](CCC(=O)O)NC(=O)[C@H](Cc2ccccc2)NC1=O)C(=O)O |  | healthy volunteers, plasma | subcutaneous, 20 mg single, lyophilised formulation |  | Vz/F | 40.5 ± 20.1 L
CN1C[C@H](COc2nccc3c(NCc4ccco4)cc(Cl)nc23)OC1=O |  | rat Crl:CD(SD) male | oral, 100 mg/kg, single dose |  | adverse necropsy findings | negative
FC(F)(F)c1ccc(CNc2ccc(Cc3c[nH]c4ncc(Cl)cc34)cn2)cn1 | refers to: maculo-papular rash | human, advanced solid tumours, non-TGCT cohort | oral, 1000 mg/day, any grade |  | treatment-related adverse events | 2%
COc1cccc(OC)c1-c1cc(C(=O)NC2(C(=O)O)C3CC4CC(C3)CC2C4)nn1-c1ccc(C(=O)N(C)CCCN(C)CCCN(C)C(=O)CN2CCN(CC(=O)[O-])CCN(CC(=O)[O-])CCN(CC(=O)[O-])CC2)cc1C(C)C.[177Lu+3] (centres unmarked) |  | mouse, HT-29 xenograft, heart | 168 h post injection |  | tissue uptake | 0.14 %ID/g
NCCONC(=O)[C@@H]1CC[C@@H]2CN1C(=O)N2OS(=O)(=O)O |  | healthy Chinese male subjects | intravenous, 1 g |  | number of Severe TRAE events | 0
COc1cc(N2CCC3(CCN(C)CC3)CC2)ccc1Nc1ncc(Cl)c(Nc2ccccc2P(C)(C)=O)n1 | population PK model | human | oral, final model, unit not given | reference: fasting | food effect on Ka | 0.588
Cc1ccc(C(=O)N(CCCN)C(c2nc3snc(C)c3c(=O)n2Cc2ccccc2)C(C)C)cc1 (centres unmarked) | hypophosphataemia grade ≥3 (CTCAE) | human patients | intravenous, 16 mg/day |  | patients with adverse event | 14%
C=CC(=O)N1CCC([C@@H]2CCNc3c(C(N)=O)c(-c4ccc(Oc5ccccc5)cc4)nn32)CC1 |  | rat plasma | 2 ng/mL, 4 h, 10 °C, autosampler | reference: nominal concentration | stability relative error | -3.4%
Cn1cnc2c(F)c(Nc3ccc(Br)cc3Cl)c(C(=O)NOCCO)cc21 |  | human, plasma | oral, dose not given, sequential zero-first-order absorption |  | central volume of distribution | 8.93 L
Cc1ccc([C@@H]2O[C@H](CO)[C@@H](O)[C@H](O)[C@H]2O)cc1Cc1ccc(-c2ccc(F)cc2)s1 |  | Japanese type 2 diabetes patients | 400 mg, day 6, 24 h urine collection | reference: baseline | urinary magnesium excretion change | -9.94 mg
CC(C)(C(=O)N1CCOc2c(C#N)cncc2C1)C(F)F |  | human, both sexes | oral, 40 mg single dose |  | subjects with contact dermatitis TEAE | 16.7%
CCc1nc(C(N)=O)c(Nc2ccc(N3CCC(N4CCN(C)CC4)CC3)c(OC)c2)nc1NC1CCOCC1 |  | Japanese patients, plasma | oral, 40 mg, cycle 0 day -2, single dose, mean |  | AUC(0-24) | 436 ng·h/mL
CCCc1c(-c2ccc(O)cc2)nn(-c2ccc(O)cc2)c1-c1ccc(O)cc1 |  | female Long-Evans rats, serum | subcutaneous, 5.2 µmol/kg |  | dose-normalised Cmax | 0.07 µM per µmol/kg

Some of these lines once more:
SMILES | assay | test system | setting | how to read | quantity | result
CC(C)[C@@H](CN1CC[C@@](C)(c2cccc(O)c2)[C@@H](C)C1)NC(=O)[C@H]1Cc2ccc(O)cc2CN1 |  | Sprague-Dawley rat, plasma | intraperitoneal, 5 mg/kg |  | AUCtotal | 1320 ng·h/mL
